{"data": "Assay results pooled from the literature", "target": "Cannabinoid receptor 1 (CNR1, Homo sapiens, UniProt P21554)", "note": "“And” joins repeats or separate records; there may be more than shown.", "sequence of UniProt P21554 (whole entry, looked up)": "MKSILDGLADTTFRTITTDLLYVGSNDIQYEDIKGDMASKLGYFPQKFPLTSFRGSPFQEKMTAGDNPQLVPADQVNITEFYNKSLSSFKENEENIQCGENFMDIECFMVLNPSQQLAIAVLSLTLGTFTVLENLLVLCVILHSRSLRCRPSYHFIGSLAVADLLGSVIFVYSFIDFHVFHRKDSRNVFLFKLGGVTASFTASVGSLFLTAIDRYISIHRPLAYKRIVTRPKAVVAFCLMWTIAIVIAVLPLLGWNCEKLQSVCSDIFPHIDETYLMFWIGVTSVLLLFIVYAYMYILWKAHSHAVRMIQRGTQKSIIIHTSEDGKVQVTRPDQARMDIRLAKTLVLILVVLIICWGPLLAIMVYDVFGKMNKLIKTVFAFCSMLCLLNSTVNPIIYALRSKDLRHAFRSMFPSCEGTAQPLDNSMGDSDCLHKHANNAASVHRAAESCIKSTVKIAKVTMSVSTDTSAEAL"}
{"SMILES": "CC1(C)C(C(=O)c2cn(CCCCCF)c3ccccc23)C1(C)C", "measurement": "Ki", "result": "234 nM"}
{"SMILES": "CC(C)(CCCCCCN=C=S)c1cc(O)c2c(c1)OC(C)(C)[C@@H]1CC[C@@H](CO)C[C@@H]21", "test": "forskolin-stimulated cAMP accumulation, agonist, HTRF", "system": "CHO-K1", "measurement": "EC50", "result": "2 nM"}
{"SMILES": "CCCCCCn1c(O)c(N=NC(=O)c2ccccc2)c2ccccc21", "test": "agonist", "measurement": "EC50", "result": "1490 nM and ~1500 nM"}
{"SMILES": "CCCc1cc(O)c2c(c1)OC(C)(CCC=C(C)C)C=C2 (stereo not drawn)", "test": "binding", "how to read": "value is lower limit", "measurement": "Ki", "result": "> 1000 nM"}
{"SMILES": "COc1ncccc1-c1cnn2ccc(N3CCN(C(=O)OC(C)C)CC3)nc12", "test": "liability screen", "measurement": "IC50", "result": "> 30000 nM"}
{"SMILES": "CCCCCn1cc(C(=O)C2C(C)(C)C2(C)C)c2ccccc21", "measurement": "Ki", "result": "368 nM"}
{"SMILES": "COC(=O)[C@@H](NC(=O)c1nn(Cc2ccc(F)cc2)c2ccccc12)C(C)(C)C", "test": "radioligand displacement", "conditions": "with NaCl, added: [3H]SR141716", "measurement": "IC50", "result": "26.2 nM"}
{"SMILES": "COc1cc(Nc2ncc(F)c(Nc3ccc4c(n3)NC(=O)C(C)(C)O4)n2)cc(OC)c1OC", "measurement": "IC50", "result": "> 10000 nM"}
{"SMILES": "COC(=O)[C@@H](NC(=O)c1nn(Cc2ccc(F)cc2)c2ccccc12)C(C)C", "test": "Gαi protein dissociation, agonist", "measurement": "EC50", "result": "4 nM"}
{"note": "Repeated from above:"}
{"SMILES": "COc1ncccc1-c1cnn2ccc(N3CCN(C(=O)OC(C)C)CC3)nc12", "test": "liability screen", "measurement": "IC50", "result": "> 30000 nM"}
